# Measured values from different studies.
# Compare with care: the assays were run in different laboratories. ± gives the spread as reported.
# Cell line: SK-OV-3
Compound,assay,conditions,IC50
COc1ccc2cc([C@H](C)C(=O)[O][Pt-2]34([O]C(=O)[C@@H](C)c5ccc6cc(OC)ccc6c5)([NH2+][C@@H]5CCCC[C@H]5[NH2+]3)[O]C(=O)C(=O)[O]4)ccc2c1,"cell growth, MTT",48 h,11.3 ± 0.8 µM
C=CCc1ccc(OCc2nnc(SCC(=O)Nc3ccc(Cl)cc3Cl)o2)c(OC)c1,"cell growth or viability, MTT",72 h,70 µM
Cc1cc2nc(-c3cc4cc5c(cc4nc3Cl)OCO5)[nH]c2cc1C,"cell growth or viability, MTT",48 h,> 100 µM
O=C(Cc1ccc2ccccc2c1)N[C@H](Cc1ccccc1)C(=O)N[C@H](Cc1ccc(O)cc1)C(=O)N[C@H](Cc1ccccc1)C(=O)N[C@H](Cc1ccc(OP(=O)(O)O)cc1)C(=O)O,"cell growth or viability, MTT",,407 µg/mL
COc1ccc(-c2nnc(-c3ccccn3)[nH]2)cc1OC.COc1ccc(-c2nnc(-c3ccccn3)[nH]2)cc1OC.[Cu+2].[O-][Cl+3]([O-])([O-])[O-].[O-][Cl+3]([O-])([O-])[O-],"cell growth or viability, MTT",24 h,86.9 µM
C=CCc1ccc(OCc2nnc(SCC(=O)Nc3ccc(Br)cc3)o2)c(OC)c1,"cell growth or viability, MTT",72 h,14.1 µM
CC1(C)[C@@H](O)CC[C@]2(C)[C@H]3C(=O)C=C4[C@@H]5C[C@@](C)(C(=O)O)CC[C@]5(C)CC[C@@]4(C)[C@]3(C)CC[C@@H]12,"cell growth or viability, MTT",48 h,98.5 µM
COc1ccc2nc(Cl)c(-c3nc4ccccc4[nH]3)cc2c1,"cell growth or viability, MTT",48 h,23 µM
C=CC(=O)N1CCC(Cc2ccc(C(=O)N3CCN(c4nc(-c5cnc(N)nc5C(F)F)nc(N5CCOCC5)n4)CC3)cc2)CC1,"Akt phosphorylation, inhibitor, in-cell western, refers to: Akt pSer473",1 h,0.054 µM
O=S(=O)([O-])[O-].[Cu+2].c1ccc(-c2nnc(-c3ccc4c(c3)OCO4)[nH]2)nc1,"cell growth or viability, MTT",24 h,6.11 µM
COc1ccc2cc([C@H](C)C(=O)[O][Pt]([NH2])([NH2])([Cl])([Cl])[O]C(=O)[C@@H](C)c3ccc4cc(OC)ccc4c3)ccc2c1,"cell growth, MTT",72 h,0.11 ± 0.02 µM
C=CCc1ccc(OCc2nnc(SCC(=O)Nc3ccccc3Cl)o2)c(OC)c1,"cell growth or viability, MTT",72 h,15.7 µM
Cc1ccc2nc(Cl)c(-c3nc4cc(Cl)c(Cl)cc4[nH]3)cc2c1,"cell growth or viability, MTT",48 h,> 100 µM
CC(C)(C)c1cc2c(O)c(c1)Cc1cc(C(C)(C)C)cc(c1OCC(=O)NCc1ccncc1)Cc1cc(C(C)(C)C)cc(c1O)Cc1cc(C(C)(C)C)cc(c1OCC(=O)NCc1ccncc1)COC2,"cell growth or viability, MTT",72 h,3.8 µM
Clc1ccc2[nH]c(-c3cc4ccccc4nc3Cl)nc2c1,"cell growth or viability, MTT",48 h,10.4 µM
C=CCc1ccc(OCc2nnc(SCC(=O)Nc3ccccc3C(=O)OC)o2)c(OC)c1,"cell growth or viability, MTT",72 h,8.74 µM
Clc1nc2cc3c(cc2cc1-c1nc2cc(Br)ccc2[nH]1)OCO3,"cell growth or viability, MTT",48 h,> 100 µM
Oc1ccc(Br)cc1C=NNC(=S)Nc1ccccc1,"cell growth or viability, MTT",72 h,0.9 µM
CC(C)(C)c1cc2c(O)c(c1)Cc1cc(C(C)(C)C)cc(c1OCC(=O)Nc1cncc3ccccc13)Cc1cc(C(C)(C)C)cc(c1O)Cc1cc(C(C)(C)C)cc(c1OCC(=O)Nc1cncc3ccccc13)COC2,"cell growth or viability, MTT",72 h,3.5 µM
Cc1ccc2nc(Cl)c(-c3nc4ccccc4[nH]3)cc2c1,"cell growth or viability, MTT",48 h,> 100 µM

# A few entries again:
Compound,assay,conditions,IC50
C=CC(=O)N1CCC(Cc2ccc(C(=O)N3CCN(c4nc(-c5cnc(N)nc5C(F)F)nc(N5CCOCC5)n4)CC3)cc2)CC1,"Akt phosphorylation, inhibitor, in-cell western, refers to: Akt pSer473",1 h,0.054 µM
Clc1nc2cc3c(cc2cc1-c1nc2cc(Br)ccc2[nH]1)OCO3,"cell growth or viability, MTT",48 h,> 100 µM
C=CCc1ccc(OCc2nnc(SCC(=O)Nc3ccc(Br)cc3)o2)c(OC)c1,"cell growth or viability, MTT",72 h,14.1 µM
